Measured values collected from several papers.
Parts stem from different laboratories: compare values within a part only. Substitutions count along the parent as printed.

Series 1
Target: UBE2E3 UBC core domain (UniProt Q969T4)
UniProt Q969T4, sequence (whole entry, looked up): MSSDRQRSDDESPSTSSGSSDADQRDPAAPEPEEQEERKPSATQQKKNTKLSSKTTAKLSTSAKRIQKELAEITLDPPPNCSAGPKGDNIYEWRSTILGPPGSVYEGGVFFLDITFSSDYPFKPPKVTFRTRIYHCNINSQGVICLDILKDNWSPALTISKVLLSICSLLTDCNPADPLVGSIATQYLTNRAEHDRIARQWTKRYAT
Technique: yeast two-hybrid
Medium: yeast
Setting: mostly zero background
Relative to: not given
Direction: higher = stronger interaction
B1: RFWD3 RING domain (UniProt Q6PCD5); chain ASMDEEEGDTCTICLEQWTNAGDHRLSALRCGHLFGYRCISTWLKGQVRKCPQCNKKARHSDIVV
B2: DTX2 RING domain (UniProt Q86UW9); chain EELKVPPDEDCIICMEKLSTASGYSDVTDSKAIGSLAVGHLTKCSHAFHLLCLLAMYCNGNKDGSLQCPSCKTIYGEKTGTQ
B3: ZMIZ2 RING domain (UniProt Q8NF64); chain GTIPGTPGPNGEDGVEQTAIKVSLKCPITFRRIQLPARGHDCRHIQCFDLESYLQLNCERGTWRCPVCNKTALLEGLEVDQYMLGILIYIQNSDYEEITIDPTCSWK
B4: SH3RF1 RING domain (UniProt Q7Z6J0); chain DESALLDLLECPVCLERLDASAKVLPCQHTFCKRCLLGIVGSRNELRCPECRTLVGSGVEEL
Sequence	lacZ reporter activity
KETIKKTTKPCPRCHVPVEKNGGCMHMKCPQPQCRLEWCWNCGCEWNRVCMG (PRKN RING domain (UniProt O60260))	0
B1 (RFWD3 RING domain)	0
B2 (DTX2 RING domain)	0
NLSELTPYILCSICKGYLIDATTITECLHTFCKSCIVRHFYYSNRCPKCNIVVHQTQPLY (PCGF6 RING domain (UniProt Q9BYE7))	0
AVPSGLEENLCKICMDSPIDCVLLECGHMVTCTKCGKRMNECPICRQYVIRAVHVF (RFFL RING domain (UniProt Q8WZ73))	0
PEDRESLKSACVVCLSSFKSCVFLECGHVCSCTECYRALPEPKKCPICRQAITRVIPLY (MUL1 RING domain (UniProt Q969V5))	9860
YQNEVDDDLVCHICLQPLLQPLDTPCGHTFCYKCLRNFLQEKDFCPLDRKRLHFKLCKK (LNX2 RING domain (UniProt Q8N448))	0
B3 (ZMIZ2 RING domain)	0
FDGDVDPDLKCALCHKVLEDPLTTPCGHVFCAGCVLPWVVQEGSCPARCRGRLSAKELN (PDZRN3 RING domain (UniProt Q9UPQ7))	0
B4 (SH3RF1 RING domain)	0
AMYLQENGIDCPKCKFSYALARGGCMHFHCTQCRHQFCSGCYNAFYAKNKC (RNF31 RING domain (UniProt Q96EP0))	0
GSDDEEIPFKCFICRQSFQNPVVTKCRHYFCESCALQHFRTTPRCYVCDQQTNGVFNPA (RNF113A RING domain (UniProt O15541))	0
GSRLQEINDVCAICYHEFTTSARITPCNHYFHALCLRKWLYIQDTCPMCHQKVYIEDDIK (RNF139 RING domain (UniProt Q8WU17))	0

Series 2
Target: CCND1, cyclin fold, Cln2 fusion (human)
Technique: yeast growth competition, sequencing
Medium: yeast
Setting: strong parent motif
Relative to: not given
Direction: higher = stronger binding
Parent: CDKN1A docking peptide (human); SKACRRLFGPVDS
Substitution	normalised enrichment score
R6C	3.3
P10F	0.911
P10C	1.41
R5G	0.252
P10N	2.13
K2W	0.87
P10W	0.887
F8P	0.0554
G9Y	4.52
D12R	0.956
V11E	5.31
L7I	0.583
L7Q	0.219
L7F	0.0581
A3P	0.959
G9H	2.35

Series 3
Target: Hepatocyte nuclear factor 3-alpha (Foxa1, Mus musculus, UniProt P35582, residues 1-468, full length assumed)
UniProt P35582, sequence (whole entry, looked up): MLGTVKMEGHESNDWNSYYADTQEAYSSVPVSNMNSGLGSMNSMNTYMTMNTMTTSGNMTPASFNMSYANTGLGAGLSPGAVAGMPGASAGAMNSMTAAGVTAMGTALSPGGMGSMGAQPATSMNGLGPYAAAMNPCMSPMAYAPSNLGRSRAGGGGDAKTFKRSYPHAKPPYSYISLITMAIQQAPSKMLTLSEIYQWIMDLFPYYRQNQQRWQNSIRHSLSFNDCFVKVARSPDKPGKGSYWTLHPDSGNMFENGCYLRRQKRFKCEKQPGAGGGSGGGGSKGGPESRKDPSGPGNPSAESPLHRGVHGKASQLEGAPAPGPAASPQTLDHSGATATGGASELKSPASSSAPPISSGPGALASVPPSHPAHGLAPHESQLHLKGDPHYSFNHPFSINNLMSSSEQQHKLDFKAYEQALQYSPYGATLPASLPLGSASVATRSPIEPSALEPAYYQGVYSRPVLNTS
Technique: EMSA with sequencing
Molecule type: double-stranded DNA, one strand shown
Medium: in vitro
Concentration: 10 and 20 nM
Setting: whole designed probe, mean of two concentrations, ends assumed
Relative to: negative control set to 0
Direction: higher = stronger binding
Oligonucleotide	normalised bound fraction
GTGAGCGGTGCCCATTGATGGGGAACTCCAAGCGCTCCGAATGTCCACTTGCAGATGCTACAAAAAGAGTGTTTCAAAACTGCTCTATGAAAAGGAATGTGCAAATCTGTGAGATAAATGCAAACATCACAAAGAAGTCTTTGAGAATGCTTCTGTCTAGTTTGTATGTTAAGATATTTCCCATTTCACCATACGTCTTAACGCACACCAAATGTCCACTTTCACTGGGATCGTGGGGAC	0.182 ratio
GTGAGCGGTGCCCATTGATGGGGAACCTCATTCCTTGCTTCCGCCAATAATCTGACTAGTAAAGAAGTCACTGCATGCCACAAATTGTCAGTGCTGACTTCCTCAACAAGGAAGTATAAGTAAATAAATATTAATATATATGGAGTGACTCAGCAAATTCCATCTTGAGAATACCAACTCCTGATGCCAACTGATTGTCAGTCATGGCTACAACAGGAGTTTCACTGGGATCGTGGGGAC	0.407 ratio
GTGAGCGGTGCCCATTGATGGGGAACGAATCATGCACAATTGTACCAGGCAGCCCCGAGCCAAGCCCTTTTATGACTTCCTTCCTTTCCACATATTGCTTCCCCTGCCACAACTGCCCTTGTTTGCCTTTCCTCCCCCCATTTCTTTATATGGTGCAACATCTAACACTTAGTTCTCAAATTCTGCCCAAATATAATCCTGGTGAACACAAACATAACATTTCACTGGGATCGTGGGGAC	0.22 ratio
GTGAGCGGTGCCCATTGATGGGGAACGGGTCCCGGGCGGCGGCAGGAATGCAGGAATGCGCACAGGCTGTGGGCGGCCAGGAGGGAGTCCCGGCGCCTGCCCCGGCGGAAGTGAGTCTTTGTGTACCCTGTCCAACACCTCCCCCCGCCAGCGCGGAAGGCCGGGCTACCTGCGCGCCTGGCAGCGCCTGGCAGCCGGCTGGGTGGGGCGCAGGGGAGCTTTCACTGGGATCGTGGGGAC	0.00165 ratio
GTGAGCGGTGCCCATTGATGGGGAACATCTTCCCCCTCTTCCTTGCCCCACCAGCTCACCTACGGGGGTTATTTGCACAAAGGAAAATAAATAAAGCCGGCATTCGTTAACCCTCTTCACGCGCATACTGCTGTTTGCTCTGCATCTAACATGGTCCTTACGCGAGGCGTGGCTCCGGGAGAGCAAAGCACCGTGTCAGGCGCATGATCCGGGCTCGCCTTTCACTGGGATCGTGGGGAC	0.395 ratio

Series 4
Target: Histone acetyltransferase KAT6A, both winged helices, GST fusion (KAT6A, Homo sapiens, UniProt Q92794, residues 1-181)
Technique: protein binding microarray
Molecule type: double-stranded DNA, one strand shown
Medium: in vitro
Concentration: not given
Setting: 8-mer, flanks averaged, mean of 2 arrays, mostly near background
Relative to: not given
Direction: higher = stronger binding
Target sequence (chain): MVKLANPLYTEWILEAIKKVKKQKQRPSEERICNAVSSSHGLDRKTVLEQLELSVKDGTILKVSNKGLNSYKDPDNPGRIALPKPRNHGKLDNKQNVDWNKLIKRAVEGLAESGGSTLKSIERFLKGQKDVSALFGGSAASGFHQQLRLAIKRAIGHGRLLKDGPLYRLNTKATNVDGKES
Oligonucleotide	E-score
ATAGCTCC	-0.187
AAAGGTCA	-0.0122
CACGTCTG	0.0322
AACCGGCT	0.171
ACAATTCA	0.0395
AGTACGTG	-0.155
ACGTTGTG	-0.0182
CGTCACCC	0.113
CAAATTAA	-0.138
AGGACCAG	-0.135
GGCAACCA	-0.0023
GCGACATA	0.186
ATGGACCA	-0.16
GGGATTAC	-0.0832
AGCCAATG	-0.163
ACGCCGAA	0.194
AACCCCTC	-0.178
CAATAGCG	0.146
ACTGTGGA	-0.107
CATAGGAG	-0.121
AACACCTA	-0.09
ATGTTCGG	0.0195
ACGAGTTC	-0.0913
CTAGTGTA	-0.0594
CACACCTC	0.0108

Repeated from above (series 2):
Substitution	normalised enrichment score
L7F	0.0581
L7Q	0.219
D12R	0.956
P10W	0.887
R6C	3.3
P10F	0.911
G9Y	4.52
L7I	0.583
